Measurements gathered from unrelated publications.
Each line is one published result; not all experiments were run side by side. ± marks the error that the study gave.
NUDT15: Nucleotide triphosphate diphosphatase NUDT15 (NUDT15, Homo sapiens, UniProt Q9NV35)
SEC14: SEC14 (Saccharomyces cerevisiae, UniProt P24280)
Scavenger receptor class B member 1: Scavenger receptor class B member 1 (Mus musculus, UniProt Q61009)

The chains behind the UniProt entries cited, without tags or fusion partners. Residues count along the entry.
UniProt Q9NV35, whole entry: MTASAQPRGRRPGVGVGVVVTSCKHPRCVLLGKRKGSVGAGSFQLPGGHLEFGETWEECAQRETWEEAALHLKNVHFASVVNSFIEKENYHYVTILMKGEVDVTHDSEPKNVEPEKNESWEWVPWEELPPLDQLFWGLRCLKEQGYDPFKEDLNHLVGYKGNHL
UniProt P24280, whole entry: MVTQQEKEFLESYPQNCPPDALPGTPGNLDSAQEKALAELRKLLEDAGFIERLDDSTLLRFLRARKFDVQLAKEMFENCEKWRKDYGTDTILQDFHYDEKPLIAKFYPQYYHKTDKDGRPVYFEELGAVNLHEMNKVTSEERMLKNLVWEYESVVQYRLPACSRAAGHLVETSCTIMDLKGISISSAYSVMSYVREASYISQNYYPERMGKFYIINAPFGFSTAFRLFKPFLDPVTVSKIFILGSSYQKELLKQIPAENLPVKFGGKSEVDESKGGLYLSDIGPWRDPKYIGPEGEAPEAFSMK
UniProt Q61009, whole entry: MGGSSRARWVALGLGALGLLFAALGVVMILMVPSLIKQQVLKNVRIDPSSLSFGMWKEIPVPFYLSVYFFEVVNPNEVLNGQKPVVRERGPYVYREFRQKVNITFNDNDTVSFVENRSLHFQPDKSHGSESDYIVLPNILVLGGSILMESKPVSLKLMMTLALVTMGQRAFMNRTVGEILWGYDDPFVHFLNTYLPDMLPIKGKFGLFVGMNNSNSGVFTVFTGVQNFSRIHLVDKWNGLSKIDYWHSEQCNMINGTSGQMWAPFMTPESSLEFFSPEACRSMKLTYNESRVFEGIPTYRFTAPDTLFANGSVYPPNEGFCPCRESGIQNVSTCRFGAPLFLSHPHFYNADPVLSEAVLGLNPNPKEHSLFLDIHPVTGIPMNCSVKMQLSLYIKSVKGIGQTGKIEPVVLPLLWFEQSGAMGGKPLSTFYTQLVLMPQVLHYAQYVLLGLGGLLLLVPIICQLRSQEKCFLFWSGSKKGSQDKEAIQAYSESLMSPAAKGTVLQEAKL
UniProt P26842, whole entry, looked up: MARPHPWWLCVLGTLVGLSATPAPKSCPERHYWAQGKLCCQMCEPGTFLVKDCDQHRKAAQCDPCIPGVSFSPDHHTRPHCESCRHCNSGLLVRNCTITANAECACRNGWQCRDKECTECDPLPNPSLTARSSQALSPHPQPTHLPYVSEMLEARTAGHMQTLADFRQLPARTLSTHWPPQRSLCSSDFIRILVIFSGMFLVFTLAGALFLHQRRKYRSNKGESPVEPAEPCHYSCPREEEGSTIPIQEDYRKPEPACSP
UniProt P26045, 646-901 limits assumed: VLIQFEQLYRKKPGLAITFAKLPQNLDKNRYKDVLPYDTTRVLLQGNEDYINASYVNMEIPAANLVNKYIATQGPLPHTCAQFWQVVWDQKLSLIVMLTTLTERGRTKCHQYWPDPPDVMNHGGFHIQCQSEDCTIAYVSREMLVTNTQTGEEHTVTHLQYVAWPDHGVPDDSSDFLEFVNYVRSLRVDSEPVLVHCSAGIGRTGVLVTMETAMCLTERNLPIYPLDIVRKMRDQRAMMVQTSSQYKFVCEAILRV
UniProt Q02936, whole entry, looked up: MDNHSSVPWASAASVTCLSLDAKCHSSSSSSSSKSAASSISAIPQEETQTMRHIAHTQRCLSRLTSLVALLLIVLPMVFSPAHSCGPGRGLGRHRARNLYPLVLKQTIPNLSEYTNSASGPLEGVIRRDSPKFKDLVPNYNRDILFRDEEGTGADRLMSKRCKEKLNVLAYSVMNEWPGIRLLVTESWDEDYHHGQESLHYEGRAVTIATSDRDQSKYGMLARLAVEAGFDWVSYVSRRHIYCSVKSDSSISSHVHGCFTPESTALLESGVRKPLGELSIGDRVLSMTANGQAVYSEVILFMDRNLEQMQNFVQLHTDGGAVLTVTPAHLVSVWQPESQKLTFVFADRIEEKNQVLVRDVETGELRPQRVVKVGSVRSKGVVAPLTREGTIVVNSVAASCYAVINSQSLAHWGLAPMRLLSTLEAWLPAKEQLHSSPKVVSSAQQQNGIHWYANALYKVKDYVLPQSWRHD
UniProt P46098, whole entry, looked up: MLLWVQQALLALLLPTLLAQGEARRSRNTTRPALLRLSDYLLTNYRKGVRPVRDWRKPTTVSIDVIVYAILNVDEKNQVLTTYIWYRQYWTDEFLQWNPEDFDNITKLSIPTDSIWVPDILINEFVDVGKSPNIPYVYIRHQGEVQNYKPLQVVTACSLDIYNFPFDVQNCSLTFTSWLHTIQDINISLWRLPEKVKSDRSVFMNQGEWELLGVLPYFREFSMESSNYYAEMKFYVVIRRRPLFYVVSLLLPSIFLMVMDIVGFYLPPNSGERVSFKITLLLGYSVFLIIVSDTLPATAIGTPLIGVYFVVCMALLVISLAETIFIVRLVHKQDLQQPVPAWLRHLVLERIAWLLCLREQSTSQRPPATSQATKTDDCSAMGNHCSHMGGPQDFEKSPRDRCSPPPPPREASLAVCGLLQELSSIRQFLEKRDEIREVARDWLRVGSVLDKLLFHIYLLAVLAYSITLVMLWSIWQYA
UniProt Q6ZMT4, 92-488 limits assumed: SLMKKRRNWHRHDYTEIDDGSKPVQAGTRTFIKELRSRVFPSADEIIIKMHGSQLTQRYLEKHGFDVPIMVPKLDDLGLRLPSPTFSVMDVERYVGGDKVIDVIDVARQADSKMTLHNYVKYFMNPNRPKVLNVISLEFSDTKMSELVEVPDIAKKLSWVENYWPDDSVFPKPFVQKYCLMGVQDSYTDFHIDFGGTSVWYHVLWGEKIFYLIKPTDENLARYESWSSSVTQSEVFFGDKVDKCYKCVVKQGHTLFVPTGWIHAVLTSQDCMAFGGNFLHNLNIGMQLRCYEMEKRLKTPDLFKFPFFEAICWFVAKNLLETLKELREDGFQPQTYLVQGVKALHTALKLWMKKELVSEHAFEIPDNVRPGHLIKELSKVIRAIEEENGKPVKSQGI
UniProt O94788, 27-518 limits assumed: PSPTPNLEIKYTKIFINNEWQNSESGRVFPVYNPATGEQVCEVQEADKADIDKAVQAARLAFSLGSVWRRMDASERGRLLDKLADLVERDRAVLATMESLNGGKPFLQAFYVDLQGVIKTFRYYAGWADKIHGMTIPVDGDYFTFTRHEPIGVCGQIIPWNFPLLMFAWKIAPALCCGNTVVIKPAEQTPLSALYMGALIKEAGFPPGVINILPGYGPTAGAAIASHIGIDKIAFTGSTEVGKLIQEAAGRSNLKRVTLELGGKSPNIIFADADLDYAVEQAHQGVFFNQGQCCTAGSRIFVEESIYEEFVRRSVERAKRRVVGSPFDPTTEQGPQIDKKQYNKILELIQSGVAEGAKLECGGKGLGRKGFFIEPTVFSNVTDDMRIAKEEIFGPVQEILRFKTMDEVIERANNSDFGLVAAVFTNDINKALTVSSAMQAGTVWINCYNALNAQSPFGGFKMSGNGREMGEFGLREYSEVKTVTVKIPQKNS
UniProt Q6PL18, 980-1092 limits assumed: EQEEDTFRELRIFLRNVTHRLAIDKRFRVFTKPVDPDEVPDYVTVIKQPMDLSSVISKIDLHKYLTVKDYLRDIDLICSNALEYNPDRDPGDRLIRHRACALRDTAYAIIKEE
UniProt Q12809, whole entry: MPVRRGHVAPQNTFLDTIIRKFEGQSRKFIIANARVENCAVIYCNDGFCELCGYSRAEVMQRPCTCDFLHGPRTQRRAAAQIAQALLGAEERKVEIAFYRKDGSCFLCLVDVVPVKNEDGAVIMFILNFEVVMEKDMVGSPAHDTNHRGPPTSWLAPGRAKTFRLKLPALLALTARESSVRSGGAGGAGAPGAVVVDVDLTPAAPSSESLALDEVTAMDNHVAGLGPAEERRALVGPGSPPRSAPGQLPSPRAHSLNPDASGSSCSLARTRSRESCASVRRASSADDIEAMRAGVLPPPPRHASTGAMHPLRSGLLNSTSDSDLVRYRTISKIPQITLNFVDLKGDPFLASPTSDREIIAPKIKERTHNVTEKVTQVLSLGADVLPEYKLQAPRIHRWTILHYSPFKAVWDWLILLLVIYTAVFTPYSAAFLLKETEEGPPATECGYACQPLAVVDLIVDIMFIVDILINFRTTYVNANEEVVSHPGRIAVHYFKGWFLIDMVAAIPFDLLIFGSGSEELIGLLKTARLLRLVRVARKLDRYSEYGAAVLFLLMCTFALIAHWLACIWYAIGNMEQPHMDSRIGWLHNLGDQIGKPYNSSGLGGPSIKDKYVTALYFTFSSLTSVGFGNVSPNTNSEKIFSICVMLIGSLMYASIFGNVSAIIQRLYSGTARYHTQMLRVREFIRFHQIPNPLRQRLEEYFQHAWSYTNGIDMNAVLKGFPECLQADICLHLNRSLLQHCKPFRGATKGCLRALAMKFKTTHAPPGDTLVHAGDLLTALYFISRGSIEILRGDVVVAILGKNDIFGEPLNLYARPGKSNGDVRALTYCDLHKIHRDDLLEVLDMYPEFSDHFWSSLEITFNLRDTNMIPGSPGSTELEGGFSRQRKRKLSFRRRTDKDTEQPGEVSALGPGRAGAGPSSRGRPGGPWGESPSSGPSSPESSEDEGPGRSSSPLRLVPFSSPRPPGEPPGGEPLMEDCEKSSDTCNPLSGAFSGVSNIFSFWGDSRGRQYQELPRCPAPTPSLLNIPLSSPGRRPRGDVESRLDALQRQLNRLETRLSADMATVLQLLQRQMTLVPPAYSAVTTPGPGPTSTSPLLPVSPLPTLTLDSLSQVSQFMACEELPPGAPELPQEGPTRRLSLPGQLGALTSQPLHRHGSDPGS
UniProt Q14790, 214-479 D374A/D384A/C409S/C433S limits assumed: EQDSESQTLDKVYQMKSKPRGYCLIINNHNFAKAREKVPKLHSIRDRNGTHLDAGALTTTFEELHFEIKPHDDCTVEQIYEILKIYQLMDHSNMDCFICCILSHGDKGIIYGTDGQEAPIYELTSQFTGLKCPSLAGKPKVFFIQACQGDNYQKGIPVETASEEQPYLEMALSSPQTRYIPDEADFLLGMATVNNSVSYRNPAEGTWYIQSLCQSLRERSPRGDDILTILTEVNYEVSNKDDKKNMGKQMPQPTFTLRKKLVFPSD

N=C(N)Nc1ccc(C(=O)N2CCN(S(=O)(=O)c3ccc4[nH]c(=O)oc4c3)CC2)cc1
IC50 (NUDT15; enzyme activity, inhibitor, malachite green; added: dGTP): 1800 nM

O=C(c1ccco1)N1CCN(c2cc(NCCO)c([N+](=O)[O-])c3nonc23)CC1
Kd (CD27 antigen (CD27, Homo sapiens, UniProt P26842); binding, microscale thermophoresis): 15100 nM

CC(=O)N[C@@H](Cc1c[nH]cn1)C(=O)N[C@@H](CC(=O)O)C(=O)NCC(=O)N[C@@H](CC(C)C)C(=O)N[C@@H](Cc1ccc(O)cc1)C(=O)N[C@@H](CCC(N)=O)C(=O)NCC(=O)N[C@@H](CC(C)C)C(=O)N[C@@H](CO)C(=O)N[C@H](C(=O)N[C@@H](C)C(=O)N[C@H](C(=O)N[C@@H](CCCCN)C(=O)N[C@@H](CC(=O)O)C(=O)N[C@H](C(=O)N[C@@H](Cc1cc(=O)oc2cc(OP(=O)(O)O)ccc12)C(=O)N[C@@H](CC(=O)O)C(=O)N[C@@H](C)C(=O)N[C@@H](CC(C)C)C(=O)N[C@@H](Cc1c[nH]cn1)C(N)=O)[C@@H](C)O)[C@@H](C)O)[C@@H](C)O
Km (PTPN3 (Homo sapiens, UniProt P26045); peptide hydrolysis, substrate; pH 6.0, 37 °C, TCR zeta-chain ITAM peptide): 25.1 µM

O=C(c1ccc(Cl)c([N+](=O)[O-])c1)N1CCN(c2cccc(C(F)(F)F)c2)CC1
IC50 (SEC14; phosphatidylinositol transfer, inhibitor; Sec14 287 nM, added: [3H]-phosphatidylinositol): 386 ± 48 nM

CCc1nc(C)c(C(=O)N2CCCN(c3nc4ccccc4s3)CC2)o1
AC50 (hh, C-terminal autoprocessing domain (Drosophila melanogaster, UniProt Q02936); cholesterol-independent autoprocessing, activator, FRET reporter; no cholesterol, added: C-H-Y 0.1 µM): 5000 nM

Cc1ccc(N2CCN(C(=O)c3ccc(Cl)c([N+](=O)[O-])c3)CC2)cc1C
IC50 (SEC14; phosphatidylinositol transfer, inhibitor; Sec14 287 nM, added: [3H]-phosphatidylinositol): 186 ± 25 nM

O=C1c2cccc3[nH]nc(c23)CCN1[C@@H]1CN2CCC1CC2 (single isomer, unassigned)
Ki (HTR3A (Homo sapiens, UniProt P46098); binding, [3H]granisetron SPA displacement; pH 10, added: [3H]granisetron 10 nM): 2.26 ± 0.48 nM

CC1(CNC(=O)c2ccc(C#Cc3ccccc3)cc2)NC(=O)NC1=O (centres unmarked)
solubility (aqueous buffer; pH 7.4): < 2480 µg/mL

Cc1ccc(C(=O)N2CCN(S(=O)(=O)c3ccc4[nH]c(=O)oc4c3)CC2)cc1
IC50 (NUDT15; enzyme activity, inhibitor, malachite green; added: dGTP): 146 nM

CCC(=O)N1CC(C)(C)c2cc(-c3csc(NC(=O)c4ccco4)n3)ccc21
IC50 (Scavenger receptor class B member 1; DiI-HDL uptake, inhibitor; mouse cells; added: DiI-HDL): 20 nM

O=C(c1ccc2[nH]ccc2c1)N1CCN(C(=O)c2ccc3[nH]c(=O)oc3c2)CC1
IC50 (NUDT15; enzyme activity, inhibitor, malachite green; added: dGTP): > 100000 nM

Cc1cncc(-c2ccc(N[C@@H]3CCNC[C@H]3OCC3CCS(=O)(=O)CC3)c3[nH]c(=O)c(C)cc23)c1
permeability (PAMPA; artificial membrane; pH 7.4): < 0.3 ×10⁻⁶ cm/s

COc1cc2c(NC3CCN(Cc4ccccc4)CC3)nc(NCCCN(C)C)nc2cc1OCCCCCN
Ki (Lysine-specific demethylase 7A, Jumonji domain (KDM7A, Homo sapiens, UniProt Q6ZMT4); demethylase activity, inhibitor, mass spectrometry; added: H3K9me2 peptide): 2500 nM

CCOc1ccsc1C(=O)N1CCN(c2ccc([N+](=O)[O-])c(N3CCCC3)c2)CC1
Kd (ALDH1A2 (Homo sapiens, UniProt O94788); binding, isothermal titration calorimetry; 30 °C, added: NAD 1 mM): 260 ± 40 nM

COCC(=O)N1CC(C)(C)c2cc(-c3csc(NC(=O)c4cc(OC)cc(OC)c4)n3)ccc21
IC50 (Scavenger receptor class B member 1; DiI-HDL uptake, inhibitor; mouse cells; added: DiI-HDL): 90 nM

Cc1cc2c(-c3cncc(N)c3)cnc(N[C@@H]3CCNC[C@H]3OCC3CCS(=O)(=O)CC3)c2[nH]c1=O
selectivity (ATAD2 (Homo sapiens, UniProt Q6PL18); TR-FRET; baseline: ATAD2 over BRD4 BD1): 1.9 log units

CN(C)S(=O)(=O)c1ccc(NCCN2CCC(Nc3nc4ccccc4n3Cc3ccc(F)cc3)CC2)c2nonc12
excitation wavelength (Tris-HCl assay buffer): 415 nm

O=C(c1cccc(Br)c1)N1CCN(S(=O)(=O)c2ccc3[nH]c(=O)oc3c2)CC1
IC50 (NUDT15; enzyme activity, inhibitor, malachite green; added: dGTP): 107 nM

CN(C)S(=O)(=O)c1ccc(NCCCCN2CCC(Nc3nc4ccccc4n3Cc3ccc(F)cc3)CC2)c2nonc12
IC50 (KCNH2 (Homo sapiens, UniProt Q12809); binding, radioligand displacement; hERG membranes; added: 9 nM [3H]dofetilide): 14 nM

O=C(c1ccc(N2CCOCC2)cc1)N1CCC[C@@H](N(C(=O)CCl)c2ccccc2)C1
IC50 (Caspase-8 (CASP8, Homo sapiens, UniProt Q14790, C409S/C433S/D374A/D384A); probe labeling, competitive gel-based ABPP; HEK293T cell lysate; 1 h, added: alkyne probe 10 µM): 750 nM

A few entries again:
CCc1nc(C)c(C(=O)N2CCCN(c3nc4ccccc4s3)CC2)o1
AC50 (hh, C-terminal autoprocessing domain (Drosophila melanogaster, UniProt Q02936); cholesterol-independent autoprocessing, activator, FRET reporter; no cholesterol, added: C-H-Y 0.1 µM): 5000 nM

Cc1ccc(N2CCN(C(=O)c3ccc(Cl)c([N+](=O)[O-])c3)CC2)cc1C
IC50 (SEC14; phosphatidylinositol transfer, inhibitor; Sec14 287 nM, added: [3H]-phosphatidylinositol): 186 ± 25 nM
